# Experimental data of several laboratories.
# Each numbered part is a random draw from the data of one study; scales do not carry over between parts. Changes are numbered by the printed parent chain.
# UniProt P10721, sequence (whole entry, unmodified, looked up): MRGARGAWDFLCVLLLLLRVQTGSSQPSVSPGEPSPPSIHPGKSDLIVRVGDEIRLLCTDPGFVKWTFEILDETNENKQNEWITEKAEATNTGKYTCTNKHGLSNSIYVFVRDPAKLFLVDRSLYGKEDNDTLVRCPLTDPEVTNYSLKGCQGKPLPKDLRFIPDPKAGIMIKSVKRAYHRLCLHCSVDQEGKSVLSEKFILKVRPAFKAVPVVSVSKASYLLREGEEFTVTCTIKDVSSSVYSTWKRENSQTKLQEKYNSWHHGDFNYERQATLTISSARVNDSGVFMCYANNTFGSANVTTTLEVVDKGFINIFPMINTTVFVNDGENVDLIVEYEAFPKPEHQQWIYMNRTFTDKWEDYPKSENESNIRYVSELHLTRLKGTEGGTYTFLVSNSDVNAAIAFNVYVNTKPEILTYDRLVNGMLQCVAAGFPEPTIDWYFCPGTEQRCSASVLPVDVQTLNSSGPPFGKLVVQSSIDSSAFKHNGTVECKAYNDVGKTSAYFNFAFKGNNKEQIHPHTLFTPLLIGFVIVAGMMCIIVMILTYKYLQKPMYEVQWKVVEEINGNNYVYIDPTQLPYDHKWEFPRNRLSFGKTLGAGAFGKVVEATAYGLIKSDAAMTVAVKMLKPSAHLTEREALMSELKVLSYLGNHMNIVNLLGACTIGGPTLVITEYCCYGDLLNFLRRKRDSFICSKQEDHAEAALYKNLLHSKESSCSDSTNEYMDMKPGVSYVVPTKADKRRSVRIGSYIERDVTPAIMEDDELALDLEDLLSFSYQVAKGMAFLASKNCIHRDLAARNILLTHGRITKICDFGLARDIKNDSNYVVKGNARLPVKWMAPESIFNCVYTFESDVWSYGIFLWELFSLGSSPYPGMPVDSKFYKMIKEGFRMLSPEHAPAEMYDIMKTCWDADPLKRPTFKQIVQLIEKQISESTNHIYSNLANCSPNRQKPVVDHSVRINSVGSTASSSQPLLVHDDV

# Set 1
# Target: CEBPE, bZIP domain (human)
# Technique: DHFR protein complementation
# Matrix: yeast
# Setting: single substitutions, most at no-binding floor
# Relative to: wild-type JUN-FOS pair
# Direction: higher = stronger binding
# Starting sequence: JUN, bZIP domain (human); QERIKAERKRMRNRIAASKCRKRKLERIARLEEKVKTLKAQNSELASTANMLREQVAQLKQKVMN; partner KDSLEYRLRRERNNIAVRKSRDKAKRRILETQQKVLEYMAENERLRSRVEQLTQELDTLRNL
Substitution,binding fitness [natural log]
L45K,-1.48
T37H,-0.996
N42S,-1.47
N42T,-1.46
K39N,-1.42
Q41I,-1.2
L38F,-1.53
A46P,-1.43

# Set 2
# Target: Centromere-binding protein 1, full length, His-tagged (CBF1, Saccharomyces cerevisiae, UniProt P17106, residues 1-351)
# UniProt P17106, sequence (whole entry, looked up): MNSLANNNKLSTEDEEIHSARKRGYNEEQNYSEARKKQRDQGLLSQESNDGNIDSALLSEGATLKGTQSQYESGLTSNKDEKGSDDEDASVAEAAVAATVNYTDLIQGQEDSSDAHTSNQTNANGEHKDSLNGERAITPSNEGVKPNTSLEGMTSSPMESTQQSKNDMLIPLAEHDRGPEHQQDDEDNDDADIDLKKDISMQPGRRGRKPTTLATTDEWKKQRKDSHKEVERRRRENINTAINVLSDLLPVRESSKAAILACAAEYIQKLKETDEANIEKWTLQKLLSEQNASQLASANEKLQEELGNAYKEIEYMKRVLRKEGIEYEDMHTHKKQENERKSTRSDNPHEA
# Technique: competition protein-binding microarray
# Form: double-stranded DNA, one strand shown
# Matrix: in vitro
# Tested at: 2 µM
# Setting: whole 60-bp probe, lowest competitor level
# With: Pho4 competitor, 0.05 µM
# Direction: higher = stronger binding
# Shared flanks, not repeated: … GTCTTGATTCGCTTGACGCTGCTG
Strand,fluorescence intensity [a.u.]
TATTTTTTTTTTTTTTATTTTGGTAGAATAGATTAC,102
GTCTTGTCTCATTTTCACGTGAATTTCCCCACTTCA,708
AATATCCTCAACCTACACGTCTTCACCATCAGTACC,77.4
AAAGCGGTAATTTGTCACCTGACTTCACATATCTAT,2170
CCTTTTGGTCTTCAACACGTTCAGCCTTGATTTCCT,93.2
CGTCCTAGCGATTGATAAGTGGGTGCCATGAGGAAG,71.6
CATTAGTTTTTTACCTGTGTGACGGTTATACATAAC,107
CGAGAAGCTTTCGGCCACGTGGGTATCTGGATTCAA,934

# Set 3
# Target: Sal-like protein 4, full length isoform A (SALL4, Homo sapiens, UniProt Q9UJQ4, residues 1-1053)
# UniProt Q9UJQ4, sequence (whole entry, looked up): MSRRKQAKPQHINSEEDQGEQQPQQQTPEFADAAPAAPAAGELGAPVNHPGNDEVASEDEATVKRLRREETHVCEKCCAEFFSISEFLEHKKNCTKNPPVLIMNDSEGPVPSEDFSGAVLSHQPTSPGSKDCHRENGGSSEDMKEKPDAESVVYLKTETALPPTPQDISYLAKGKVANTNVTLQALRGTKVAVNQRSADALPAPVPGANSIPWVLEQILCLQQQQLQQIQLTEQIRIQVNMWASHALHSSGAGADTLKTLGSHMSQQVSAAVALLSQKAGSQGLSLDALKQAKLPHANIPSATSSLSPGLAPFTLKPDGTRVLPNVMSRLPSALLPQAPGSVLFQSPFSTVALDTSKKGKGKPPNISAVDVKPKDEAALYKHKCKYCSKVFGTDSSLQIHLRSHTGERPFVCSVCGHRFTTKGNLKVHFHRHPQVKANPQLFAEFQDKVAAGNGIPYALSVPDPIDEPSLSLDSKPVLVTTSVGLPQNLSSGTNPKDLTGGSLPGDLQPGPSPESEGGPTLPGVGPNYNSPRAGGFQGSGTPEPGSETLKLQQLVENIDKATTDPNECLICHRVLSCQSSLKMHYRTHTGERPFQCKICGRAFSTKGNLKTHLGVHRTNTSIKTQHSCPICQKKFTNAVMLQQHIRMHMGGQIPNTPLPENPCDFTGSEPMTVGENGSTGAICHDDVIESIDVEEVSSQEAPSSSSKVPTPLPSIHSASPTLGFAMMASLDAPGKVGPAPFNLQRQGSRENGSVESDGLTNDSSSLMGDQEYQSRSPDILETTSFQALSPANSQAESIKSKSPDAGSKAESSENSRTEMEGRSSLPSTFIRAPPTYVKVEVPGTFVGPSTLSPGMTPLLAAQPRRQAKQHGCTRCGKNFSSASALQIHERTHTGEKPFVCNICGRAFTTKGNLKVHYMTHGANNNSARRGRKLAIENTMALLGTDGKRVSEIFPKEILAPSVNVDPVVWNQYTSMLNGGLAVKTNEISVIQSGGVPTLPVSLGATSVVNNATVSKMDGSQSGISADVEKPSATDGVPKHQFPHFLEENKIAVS
# Technique: universal PBM
# Form: double-stranded DNA, one strand shown
# Matrix: in vitro
# Tested at: 600 nM
# Setting: 8-mer, flanks averaged, mean of replicates
# Direction: higher = stronger binding
Strand,E-score
AGCTGCAC,-0.189
GCACCACA,-0.133
CAAATGAG,0.0573
AACGCACA,0.0504
CTAAAATC,0.0611
GGCTCATA,0.111
GAAACCAA,-0.0112
CCCTTCAC,-0.103

# Other studies, line by line
Compound,target,observed,technique,tested at,quantity,value
CCCOc1ccc([C@@H]2[C@@H](C(=O)O)[C@H](c3ccc4c(c3)OCO4)CN2CC(=O)Nc2c(CC)cccc2CC)cc1,"Mast/stem cell growth factor receptor Kit (KIT, Homo sapiens, UniProt P10721, D816V)",cell-free assay,competition with immobilised ligand,1 µM,remaining binding,99%
